Results pooled from the literature.
A part holds a random share of what one study measured. Changes are numbered by the printed parent chain.

Series 1
Target: ABI1, truncated, D143A, DHFR fusion (Arabidopsis thaliana)
Method: DHFR PCA, deep sequencing
Matrix: yeast
Notes: methotrexate growth selection, single substitutions
Added: (+)-ABA 17 µM
Reference: wild-type fitted maximum
Direction: higher = stronger binding
Parent: PYL1, truncated, DHFR fusion (Arabidopsis thaliana); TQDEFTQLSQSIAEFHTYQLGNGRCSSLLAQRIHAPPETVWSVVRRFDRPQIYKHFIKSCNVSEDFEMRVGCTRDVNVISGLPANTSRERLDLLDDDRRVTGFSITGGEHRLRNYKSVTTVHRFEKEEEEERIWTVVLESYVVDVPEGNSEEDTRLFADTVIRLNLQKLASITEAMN
Change	relative binding score [%]
I12R	29.4
R24F	42.9
S63I	75.4
L28P	-19.8
N61C	89.8
E127M	87.8
K54L	-8.18
I105G	-14.2
D92H	8.48
A30W	80.3
T106S	35.2
K116A	61.3
S80R	6.06
G21P	79.8
A35Q	15.3
Q167M	78.1
R45Q	7.24
K58P	-7.73
E67G	66.8
S80L	6.78
H122N	38.5
R123W	36.9
Y141K	-5.19
E109Q	84.6
F66W	77

Series 2
Target: Prothrombin, mature alpha-thrombin (F2, Homo sapiens, UniProt P00734)
Method: aptamer microarray, sandwich
Molecule type: DNA with 2'F-ANA
Matrix: in vitro
Concentration: 200 nM
Notes: whole 15-mer aptamer, many near background
Added: Cy3 exosite-II aptamer, 400 nM
Direction: higher = stronger binding
Oligonucleotide: GGTTGGTGTGGTTGG
Modification	mean fluorescence intensity [a.u.]
2'F-ANA at 4 5 7 8 9 11 13 15	50.1
2'F-ANA at 5 6 8 10 11 12 13 14 15	49.6
2'F-ANA at 3 4 5 6 10 11 15	53.4
2'F-ANA at 2 6 9 11 13 15	224
2'F-ANA at 1 2 3 4 5 6 7 13 15	61.8
2'F-ANA at 3 4 10 11 13	253
2'F-ANA at 1 2 4 7 9 11	105
2'F-ANA at 1 4 5 6 7 12 13 14 15	49.1
2'F-ANA at 1 2 3 6 8 11 15	192
2'F-ANA at 9 11 12 13 15	606
2'F-ANA at 1 3 5 7 8 9 15	73.3
2'F-ANA at 1 3 4 6 14 15	75.3
2'F-ANA at 4 7 8 9 11 14 15	93.5
2'F-ANA at 4 5 6 9 12 14	43.2
2'F-ANA at 4 7 11 14 15	136
2'F-ANA at 2 3 6 8 9 11 12 14	390
2'F-ANA at 1 3 5 7 14 15	46.8
2'F-ANA at 2 4 5 6 9 10 11 12 13 14 15	51.1
2'F-ANA at 7 11 13 14	201
2'F-ANA at 2 9 11 12 13 14	158
2'F-ANA at 2 4 6 8 13 14 15	84.7
2'F-ANA at 1 3 4 5 8 10 11 12 14	88.3
2'F-ANA at 2 5 7 8 11	67.7
2'F-ANA at 1 3 6 7 8 9 10 12 14	67.3
2'F-ANA at 1 2 3 4 5 8 9 10 11 12 15	209

Series 3
Target: CCNE1, cyclin fold, Cln2 fusion (human)
Method: yeast growth competition, sequencing
Matrix: yeast
Notes: strong parent motif
Reference: not given
Direction: higher = stronger binding
Parent: PKN2 docking peptide (human); VSAVRKLDFSDTM; partner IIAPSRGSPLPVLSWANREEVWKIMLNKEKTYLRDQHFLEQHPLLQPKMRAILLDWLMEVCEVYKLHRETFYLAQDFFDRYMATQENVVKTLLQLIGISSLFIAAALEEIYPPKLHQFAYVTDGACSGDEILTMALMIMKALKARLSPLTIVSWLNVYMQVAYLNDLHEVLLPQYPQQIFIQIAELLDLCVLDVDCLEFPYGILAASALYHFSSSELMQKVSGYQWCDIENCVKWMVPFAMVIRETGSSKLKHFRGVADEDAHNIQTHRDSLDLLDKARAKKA
Change	normalised enrichment score
R5W	0.394
D8W	3.45
L7V	0.434
L7Q	0.0198
K6I	4.53
V4G	0.277
D8H	4.53
A3Q	0.522
R5L	0.691
F9H	-0.0244
S2F	4.22
S10P	5.12
A3P	2.16
T12K	5.38
S2W	3.9
A3M	2.3

Series 4
Substance: PhoQ, residues 284 288 289 292 302 303 SLKLQV
Method: Sort-seq
Item: YFP reporter
Matrix: E. coli
Notes: PhoQ-PhoP variant library
Added: 10 µM Mg2+
Reference: high Mg2+ state
Direction: higher = stronger signaling
target	fold induction
PhoP, residues 12 14 15 18 19 LHHYF (Escherichia coli, UniProt P23836)	11.2
PhoP, residues 12 14 15 18 19 TPWTL (Escherichia coli, UniProt P23836)	1.25
PhoP, residues 12 14 15 18 19 NFFVT (Escherichia coli, UniProt P23836)	19.3

Series 5
Target: RNA binding protein fox-1 homolog 2, RRM domain, GST-SBP tag (RBFOX2, Homo sapiens, UniProt O43251-10, residues 100-194)
Method: RNA Bind-n-Seq
Molecule type: RNA
Matrix: in vitro
Concentration: 365 nM
Notes: natural RNA segment, single round, ends assumed
Reference: no-protein control
Direction: higher = stronger binding
Constant ends, left off below: GGGAGUUCUACAGUCCGACGAUC … UGGAAUUCUCGGGUGCCAA
Residues (chain): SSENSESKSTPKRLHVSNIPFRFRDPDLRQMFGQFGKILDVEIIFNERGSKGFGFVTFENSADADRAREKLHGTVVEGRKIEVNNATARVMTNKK
Oligonucleotide	RBNS enrichment (R)
GCUUGAGUUGCCUUGUAGAGCUACUUGAAGACCCCAACAUAAGUGCUUCACUGAUCUUAAGUAUUAUCGGUUUGCUGUCUCAACUAGCAGUAGACAUUGAAACCAGAGAU	1.12
AAAGCAUAGAUUGCACAGGAAGGUAUGAGUACAAAUACUGUAAUGCAUAACUUGUUAUUGUCCUAGAUGUGUUUGAUAUUUUUCCUUUACAACUGAAUGCUAUAAAAGUG	0.568
AGUCAUGGCCUGAGAUGCAGGUGAUGCCAUUACAGAACCAAAUCGUGGCACGUAUUGCUGUGUCUCCUCUCAGAGUGACAGUCAUAAAUACUGUCAAACAAUAAAGGGAG	0.312
AGUGGCAAAAAUCCCCUUUUUGUAAGCCCCCAUAGUCUAGAGGCAGUUUUCUUUUUAAGAAUCAUGCCAGAGCCUGAGUCGAGCAGUAUGCUUUCUUGGUUUUUGAGAGU	0.335
ACUCUUGGACUCAUAGGGCAGAAUGAAGGGCUGUAAAGAUGAGGGGGUAUUUCUUCUACCCUAUCUUCUUUCAUUGUCAUUCCAAGGGCAGUAGGCCAAGAAAUUAUCUU	0.33
ACACCAGCUCUACUCUUUAGUAAAAUUGUAAAAGGCUGCCAUUAUGGACAUUAGGUAUCCCAACAUAACCAUCUGGAGUGUGUCCAGUUUGUUCUUCAUAGGACCAAUUU	0.216
GUGAAAUCAAAGAUUAUAGUCAUUGUAUAAUUUGGCUUGGAGGCUAUGAAAUGUCUUUUUUUCUUUUUGGUAUUUUACAUUAUUCACAUUUUAGAAUAACAAGAACACCA	0.606
AGUUAAACUUUAUAAUUCUUUGCAAUUUUUAAGUAUUUUAAACUAAAUAUGCAAGGUUUGUUCUAUAUUAUGAUCACUAUUAAUCUUUUAUCACUCAAUUUUAAAACUAG	0.846
AUUCAAAAACUUGAAAUGCAGGACGCCAUUAAGUGUCUGUUUAUAUUUUUGGAAUAUUUGUAUUACUUACAAUUAAUUAAUAAAAGUGGGUUUAAAAAACCUUUCCAGGA	0.464
CUGCAGUUAGAACAUGGAUGUUUCUUCUUUGAUUAUCAAAAACACAAAAACAGAGAGCAAGCCCGAGGAGGAGACUGGUGACUUUCCUGUGUCCUCAGCUAACAAAGGCA	2.01
GUAAAUUGUAUAUUUUUAUGAACUUUUGAAGCACACACUCCUGUUUCCCUCUGUGUAGCUUUGUGGGGAUUUCAUGUAUAUAUGCUGUCUGAAAGAAUCCAGAGGUUGGA	0.788
GCCUUGUUAUUACUAGGUUUUUUGAGAUUAAAAAAAAAAAAUCCCUGGUUUAAAACCAACAAUGAUGCCUAGUGAGUAUGUGUCCACAGGCCAUAACAGGGUAGAAGAGA	0.691

Series 6
Target: JUNB, bZIP domain (human)
Method: DHFR protein complementation
Matrix: yeast
Notes: single substitutions, most at no-binding floor
Reference: wild-type JUN-FOS pair
Direction: higher = stronger binding
Parent: JUN, bZIP domain (human); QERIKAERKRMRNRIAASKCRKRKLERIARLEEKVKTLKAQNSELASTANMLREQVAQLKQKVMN; partner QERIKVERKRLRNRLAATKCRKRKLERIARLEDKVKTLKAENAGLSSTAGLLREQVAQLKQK
Change	binding fitness [natural log]
A40M	-1.16
S47G	-1.23
A49G	-1.38
K39V	-1.15
K34R	-1.07
Q41C	-1.5
E33S	-1.24
Q55D	-1.35
V35Y	-1.43
S43Q	-0.926
A46W	-1.28
E44T	-1.24
V35L	-1.3
M51S	-1.12
Q41M	-1.2
E54D	-1.3

Some of these lines once more (series 2):
Modification	mean fluorescence intensity [a.u.]
2'F-ANA at 1 2 3 6 8 11 15	192
2'F-ANA at 1 3 5 7 14 15	46.8
2'F-ANA at 1 3 4 6 14 15	75.3
2'F-ANA at 1 3 4 5 8 10 11 12 14	88.3
2'F-ANA at 2 6 9 11 13 15	224
2'F-ANA at 7 11 13 14	201
2'F-ANA at 1 4 5 6 7 12 13 14 15	49.1
2'F-ANA at 4 7 8 9 11 14 15	93.5
2'F-ANA at 1 2 4 7 9 11	105
2'F-ANA at 4 5 6 9 12 14	43.2
2'F-ANA at 4 7 11 14 15	136
2'F-ANA at 5 6 8 10 11 12 13 14 15	49.6
